Measured values collected from several papers.
A part holds a random share of what one study measured. Values joined by “and” are separate records of one study, mostly repeats; a detail may differ.
Chain of UniProt Q8WXR4 (whole entry, looked up): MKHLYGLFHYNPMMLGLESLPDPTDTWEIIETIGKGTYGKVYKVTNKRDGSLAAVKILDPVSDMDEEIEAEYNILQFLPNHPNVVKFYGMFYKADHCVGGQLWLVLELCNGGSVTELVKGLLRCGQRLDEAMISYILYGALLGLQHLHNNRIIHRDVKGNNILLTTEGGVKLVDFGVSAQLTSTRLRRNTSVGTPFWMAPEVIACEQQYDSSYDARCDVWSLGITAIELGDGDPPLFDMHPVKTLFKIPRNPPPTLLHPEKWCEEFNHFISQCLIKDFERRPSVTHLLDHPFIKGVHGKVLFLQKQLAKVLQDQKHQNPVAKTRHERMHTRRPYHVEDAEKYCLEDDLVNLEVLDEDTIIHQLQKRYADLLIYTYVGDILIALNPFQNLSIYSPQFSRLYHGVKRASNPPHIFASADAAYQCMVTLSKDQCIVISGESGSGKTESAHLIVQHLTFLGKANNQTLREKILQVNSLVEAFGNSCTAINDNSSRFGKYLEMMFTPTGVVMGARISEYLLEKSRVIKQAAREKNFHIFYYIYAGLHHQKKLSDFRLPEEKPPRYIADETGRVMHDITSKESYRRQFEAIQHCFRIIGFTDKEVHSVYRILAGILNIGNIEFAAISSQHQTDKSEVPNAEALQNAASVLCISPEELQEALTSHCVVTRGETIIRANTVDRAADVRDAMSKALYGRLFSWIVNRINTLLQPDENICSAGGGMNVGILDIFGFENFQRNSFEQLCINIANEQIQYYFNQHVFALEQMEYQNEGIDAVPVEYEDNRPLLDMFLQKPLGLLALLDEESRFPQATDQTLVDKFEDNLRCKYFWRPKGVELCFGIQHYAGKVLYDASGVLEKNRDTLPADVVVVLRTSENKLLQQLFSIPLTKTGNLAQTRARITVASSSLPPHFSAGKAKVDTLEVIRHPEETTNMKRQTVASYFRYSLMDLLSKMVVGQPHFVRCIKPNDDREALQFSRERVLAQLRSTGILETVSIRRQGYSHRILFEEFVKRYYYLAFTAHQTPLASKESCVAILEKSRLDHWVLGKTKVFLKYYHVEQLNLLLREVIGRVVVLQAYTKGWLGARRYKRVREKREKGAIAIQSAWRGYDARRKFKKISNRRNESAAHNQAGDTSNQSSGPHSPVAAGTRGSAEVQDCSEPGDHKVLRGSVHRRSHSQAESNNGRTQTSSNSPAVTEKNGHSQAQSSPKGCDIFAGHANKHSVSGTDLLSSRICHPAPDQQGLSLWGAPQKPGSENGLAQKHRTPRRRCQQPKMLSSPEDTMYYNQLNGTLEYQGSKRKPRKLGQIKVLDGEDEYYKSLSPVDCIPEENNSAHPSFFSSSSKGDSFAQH
Chain of UniProt Q13554 (whole entry, looked up): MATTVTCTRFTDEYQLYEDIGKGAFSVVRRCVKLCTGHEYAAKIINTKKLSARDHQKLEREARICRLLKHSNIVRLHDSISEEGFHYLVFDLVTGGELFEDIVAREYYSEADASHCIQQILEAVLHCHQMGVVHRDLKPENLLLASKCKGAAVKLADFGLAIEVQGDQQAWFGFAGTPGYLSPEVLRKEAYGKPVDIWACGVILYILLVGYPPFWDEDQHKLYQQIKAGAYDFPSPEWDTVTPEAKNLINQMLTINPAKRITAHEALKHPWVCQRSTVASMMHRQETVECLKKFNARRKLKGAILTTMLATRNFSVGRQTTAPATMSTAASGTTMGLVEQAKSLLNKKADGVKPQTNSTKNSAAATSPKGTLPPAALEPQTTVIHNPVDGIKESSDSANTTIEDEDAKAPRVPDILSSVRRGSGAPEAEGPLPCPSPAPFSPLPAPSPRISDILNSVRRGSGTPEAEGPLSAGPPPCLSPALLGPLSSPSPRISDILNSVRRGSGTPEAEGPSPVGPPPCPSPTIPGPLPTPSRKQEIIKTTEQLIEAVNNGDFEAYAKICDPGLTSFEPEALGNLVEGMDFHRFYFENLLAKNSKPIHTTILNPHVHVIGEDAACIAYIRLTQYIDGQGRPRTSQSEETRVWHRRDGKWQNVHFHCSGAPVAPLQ
Chain of UniProt Q8WU08 (whole entry, looked up): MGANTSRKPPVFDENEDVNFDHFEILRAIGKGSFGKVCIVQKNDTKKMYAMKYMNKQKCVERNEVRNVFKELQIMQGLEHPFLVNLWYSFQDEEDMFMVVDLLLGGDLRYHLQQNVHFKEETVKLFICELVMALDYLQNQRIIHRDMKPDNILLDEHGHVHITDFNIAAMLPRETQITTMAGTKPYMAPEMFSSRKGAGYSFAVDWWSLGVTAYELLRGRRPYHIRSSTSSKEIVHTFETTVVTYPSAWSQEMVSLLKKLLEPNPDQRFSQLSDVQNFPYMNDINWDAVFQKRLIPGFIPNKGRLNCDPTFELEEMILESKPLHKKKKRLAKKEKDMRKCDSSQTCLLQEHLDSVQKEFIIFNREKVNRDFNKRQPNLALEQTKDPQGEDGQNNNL

Sample 1 — effect on: enzyme activity; mode: inhibitor; tested at: 0.5 µM; baseline: control
Compound: COc1cc2c(N3CCN(C(=O)Nc4ccc(OC(C)C)cc4)CC3)ncnc2cc1OCCCN1CCCCC1
It gave 99% for remaining activity (Misshapen-like kinase 1 (MINK1, Homo sapiens, UniProt Q8N4C8)).
The remaining activity was 98.7% (MAP/microtubule affinity-regulating kinase 4 (MARK4, Homo sapiens, UniProt Q96L34)).
Dual specificity mitogen-activated protein kinase kinase 1 (MAP2K1, Homo sapiens, UniProt Q02750) — remaining activity: 113%.
The remaining activity was 109% (Serine/threonine-protein kinase MARK2 (MARK2, Homo sapiens, UniProt Q7KZI7)).
RAC-beta serine/threonine-protein kinase (AKT2, Homo sapiens, UniProt P31751) — remaining activity: 97.9%.
It gave 100% for remaining activity (Serine/threonine-protein kinase MRCK beta (CDC42BPB, Homo sapiens, UniProt Q9Y5S2)).
It gave 102% for remaining activity (Rho-associated protein kinase 1 (ROCK1, Homo sapiens, UniProt Q13464)).
It gave 105% for remaining activity (Mitogen-activated protein kinase 11 (MAPK11, Homo sapiens, UniProt Q15759)).
The remaining activity was 96% (Cyclin-dependent kinase 1, with cyclin A (CDK1, Homo sapiens, UniProt P06493)).
For Cyclin-dependent kinase 9, with cyclin K (CDK9, Homo sapiens, UniProt P50750): remaining activity read 107%.
The remaining activity was 103% (Serine/threonine-protein kinase Nek3 (NEK3, Homo sapiens, UniProt P51956)).
The remaining activity was 88.5% (Myosin-IIIb (MYO3B, Homo sapiens, UniProt Q8WXR4)).
It gave 97.7% for remaining activity (Calcium/calmodulin-dependent protein kinase type 1B (PNCK, Homo sapiens, UniProt Q6P2M8)).
The remaining activity was 105% (cGMP-dependent protein kinase 2 (PRKG2, Homo sapiens, UniProt Q13237)).
For Dual specificity protein kinase CLK4 (CLK4, Homo sapiens, UniProt Q9HAZ1): remaining activity read 88.7%.
For Hepatocyte growth factor receptor (MET, Homo sapiens, UniProt P08581): remaining activity read 92.5%.
It gave 87% for remaining activity (Mitogen-activated protein kinase 1 (MAPK1, Homo sapiens, UniProt P28482)).
Serine/threonine-protein kinase PAK 3 (PAK3, Homo sapiens, UniProt O75914) — remaining activity: 105%.
Mitogen-activated protein kinase 14 (MAPK14, Homo sapiens, UniProt Q16539) — remaining activity: 94.1%.
For Serine/threonine-protein kinase PLK3 (PLK3, Homo sapiens, UniProt Q9H4B4): remaining activity read 99.3%.
For Tyrosine-protein kinase TXK (TXK, Homo sapiens, UniProt P42681): remaining activity read 105%.

Sample 2 — species: human; medium: microsomes or S9; tested at: 2 µM; time: 0.5 h
The remaining compound of Cc1ccc(C(=O)N2CCN(C(=O)c3ccc(C)cc3)C2)cc1 is reported as 68.2%.
COc1cc(NC(=O)c2cnn(-c3ccc(C)cc3C)c2C2CCNCC2)cc(OC)c1OC gave a remaining compound of 92.8%.
For CCOC(=O)c1ccc(Nc2nc3ccc(Cl)cc3n3cnnc23)cc1, the remaining compound was over 100%.
COc1cc(/C=C/C(=O)O)cc(S(=O)(=O)N(C)CCO)c1OC has a remaining compound of 85.4%.
The remaining compound of C(=C\c1nnn(Cc2ccccc2)n1)/c1ccccc1 is reported as 31.5%.
Cc1nc(C)c(C(=O)NCc2ccccc2)c(-c2ccc(Cl)cc2)c1C(=O)O gave a remaining compound of over 99%.
CCOC(=O)c1ccc(NC(=O)c2ccc(-n3nncc3C)cc2)cc1 has a remaining compound of 5.48%.
CN(C)CCN(Cc1ccccc1)C(=O)C(C(=O)c1ccc(F)cc1)n1ccccc1=O (stereo not drawn) gave a remaining compound of 28.5%.
With CCOc1cccc(CNC(=O)c2c(OCC(C)C)cc(=O)n3c2CCCCC3)c1 the remaining compound was under 1%.
For Cc1nc2c3ccccc3nn2c(C)c1CC(=O)NCCc1c[nH]cn1, the remaining compound was over 100%.
The remaining compound of Cc1c(C#N)c2ccccc2n1Cc1nc(CCc2ccccc2)n[nH]1 is reported as 6.65%.
N#Cc1cnn(-c2nnc(-c3ccccc3)c(-c3ccccc3)n2)c1N gave a remaining compound of 81.8%.
The remaining compound of O=C(NNc1ncnc2[nH]cnc12)C1CCCCC1 is reported as 77.4%.
For CC1CCN(C(=O)c2cc3c([nH]2)CCOC3)c2c(O)cccc21 (stereo not drawn), the remaining compound was 25.9%.
The remaining compound of COc1ccc(C2C(C(=O)Nc3ccccc3OC)CCC(=O)N2c2ccc3c(c2)OCO3)cc1 (stereo not drawn) is reported as 91.6%.

Sample 3 — method: competition with immobilised ligand; tested at: 1 µM
SMILES: O=S(=O)(NC1CCC(c2cc(F)ccc2F)(S(=O)(=O)c2ccc(Cl)cc2)CC1)C(F)(F)F (stereo not drawn)
For Vascular endothelial growth factor receptor 2 (KDR, Homo sapiens, UniProt P35968); cell-free assay: remaining binding read 100%.
It gave 100% for remaining binding (Discoidin domain-containing receptor 2 (DDR2, Homo sapiens, UniProt Q16832); cell-free assay).
The remaining binding was 100% (Serine/threonine-protein kinase WNK4 (WNK4, Homo sapiens, UniProt Q96J92); cell-free assay).
It gave 100% for remaining binding (Myosin-IIIb (MYO3B, Homo sapiens, UniProt Q8WXR4); binding).
The remaining binding was 94% (Serine/threonine-protein kinase DCLK2 (DCLK2, Homo sapiens, UniProt Q8N568); cell-free assay).
For Serine/threonine-protein kinase N2 (PKN2, Homo sapiens, UniProt Q16513); cell-free assay: remaining binding read 100%.
It gave 91% for remaining binding (Myosin-IIIa (MYO3A, Homo sapiens, UniProt Q8NEV4); binding).
Serine/threonine-protein kinase 32A (STK32A, Homo sapiens, UniProt Q8WU08); cell-free assay — remaining binding: 97%.
The remaining binding was 93% (MAP kinase-interacting serine/threonine-protein kinase 1 (MKNK1, Homo sapiens, UniProt Q9BUB5); cell-free assay).
For Receptor tyrosine-protein kinase erbB-4 (ERBB4, Homo sapiens, UniProt Q15303); cell-free assay: remaining binding read 94%.
For Receptor-type tyrosine-protein kinase FLT3 (FLT3, Homo sapiens, UniProt P36888, ITD); cell-free assay: remaining binding read 91%.
For Ephrin type-A receptor 1 (EPHA1, Homo sapiens, UniProt P21709); cell-free assay: remaining binding read 100%.
It gave 89% for remaining binding (Tyrosine-protein kinase Blk (BLK, Homo sapiens, UniProt P51451); cell-free assay).
The remaining binding was 96% (Cyclin-dependent kinase 11A (CDK11A, Homo sapiens, UniProt Q9UQ88); binding).
The remaining binding was 89% (Epidermal growth factor receptor (EGFR, Homo sapiens, UniProt P00533, L858R/T790M); cell-free assay).
The remaining binding was 100% (Ephrin type-B receptor 2 (EPHB2, Homo sapiens, UniProt P29323); cell-free assay).
Tyrosine-protein kinase ABL1, phosphorylated (ABL1, Homo sapiens, UniProt P00519); cell-free assay — remaining binding: 87%.
Epidermal growth factor receptor (EGFR, Homo sapiens, UniProt P00533, A750P/del747-749); cell-free assay — remaining binding: 92%.
For Serine/threonine-protein kinase Nek7 (NEK7, Homo sapiens, UniProt Q8TDX7); cell-free assay: remaining binding read 100%.
For Calcium/calmodulin-dependent protein kinase type II subunit beta (CAMK2B, Homo sapiens, UniProt Q13554); cell-free assay: remaining binding read 97%.
The remaining binding was 82% (Receptor-type tyrosine-protein kinase FLT3 (FLT3, Homo sapiens, UniProt P36888, D835V); cell-free assay).
The remaining binding was 100% (Cyclin-dependent kinase 14 (CDK14, Homo sapiens, UniProt O94921); cell-free assay).
It gave 100% for remaining binding (Serine/threonine-protein kinase TNNI3K (TNNI3K, Homo sapiens, UniProt Q59H18); cell-free assay).
Epidermal growth factor receptor (EGFR, Homo sapiens, UniProt P00533, del747-752/P753S); cell-free assay — remaining binding: 0%.
For STE20/SPS1-related proline-alanine-rich protein kinase (STK39, Homo sapiens, UniProt Q9UEW8); cell-free assay: remaining binding read 100%.

Sample 4 — effect on: enzyme activity; mode: inhibitor; tested at: 77 µM; baseline: untreated
Target: DNA polymerase theta, ATPase domain (POLQ, Homo sapiens, UniProt O75417)
Chain of UniProt O75417 (whole entry, unmodified, looked up): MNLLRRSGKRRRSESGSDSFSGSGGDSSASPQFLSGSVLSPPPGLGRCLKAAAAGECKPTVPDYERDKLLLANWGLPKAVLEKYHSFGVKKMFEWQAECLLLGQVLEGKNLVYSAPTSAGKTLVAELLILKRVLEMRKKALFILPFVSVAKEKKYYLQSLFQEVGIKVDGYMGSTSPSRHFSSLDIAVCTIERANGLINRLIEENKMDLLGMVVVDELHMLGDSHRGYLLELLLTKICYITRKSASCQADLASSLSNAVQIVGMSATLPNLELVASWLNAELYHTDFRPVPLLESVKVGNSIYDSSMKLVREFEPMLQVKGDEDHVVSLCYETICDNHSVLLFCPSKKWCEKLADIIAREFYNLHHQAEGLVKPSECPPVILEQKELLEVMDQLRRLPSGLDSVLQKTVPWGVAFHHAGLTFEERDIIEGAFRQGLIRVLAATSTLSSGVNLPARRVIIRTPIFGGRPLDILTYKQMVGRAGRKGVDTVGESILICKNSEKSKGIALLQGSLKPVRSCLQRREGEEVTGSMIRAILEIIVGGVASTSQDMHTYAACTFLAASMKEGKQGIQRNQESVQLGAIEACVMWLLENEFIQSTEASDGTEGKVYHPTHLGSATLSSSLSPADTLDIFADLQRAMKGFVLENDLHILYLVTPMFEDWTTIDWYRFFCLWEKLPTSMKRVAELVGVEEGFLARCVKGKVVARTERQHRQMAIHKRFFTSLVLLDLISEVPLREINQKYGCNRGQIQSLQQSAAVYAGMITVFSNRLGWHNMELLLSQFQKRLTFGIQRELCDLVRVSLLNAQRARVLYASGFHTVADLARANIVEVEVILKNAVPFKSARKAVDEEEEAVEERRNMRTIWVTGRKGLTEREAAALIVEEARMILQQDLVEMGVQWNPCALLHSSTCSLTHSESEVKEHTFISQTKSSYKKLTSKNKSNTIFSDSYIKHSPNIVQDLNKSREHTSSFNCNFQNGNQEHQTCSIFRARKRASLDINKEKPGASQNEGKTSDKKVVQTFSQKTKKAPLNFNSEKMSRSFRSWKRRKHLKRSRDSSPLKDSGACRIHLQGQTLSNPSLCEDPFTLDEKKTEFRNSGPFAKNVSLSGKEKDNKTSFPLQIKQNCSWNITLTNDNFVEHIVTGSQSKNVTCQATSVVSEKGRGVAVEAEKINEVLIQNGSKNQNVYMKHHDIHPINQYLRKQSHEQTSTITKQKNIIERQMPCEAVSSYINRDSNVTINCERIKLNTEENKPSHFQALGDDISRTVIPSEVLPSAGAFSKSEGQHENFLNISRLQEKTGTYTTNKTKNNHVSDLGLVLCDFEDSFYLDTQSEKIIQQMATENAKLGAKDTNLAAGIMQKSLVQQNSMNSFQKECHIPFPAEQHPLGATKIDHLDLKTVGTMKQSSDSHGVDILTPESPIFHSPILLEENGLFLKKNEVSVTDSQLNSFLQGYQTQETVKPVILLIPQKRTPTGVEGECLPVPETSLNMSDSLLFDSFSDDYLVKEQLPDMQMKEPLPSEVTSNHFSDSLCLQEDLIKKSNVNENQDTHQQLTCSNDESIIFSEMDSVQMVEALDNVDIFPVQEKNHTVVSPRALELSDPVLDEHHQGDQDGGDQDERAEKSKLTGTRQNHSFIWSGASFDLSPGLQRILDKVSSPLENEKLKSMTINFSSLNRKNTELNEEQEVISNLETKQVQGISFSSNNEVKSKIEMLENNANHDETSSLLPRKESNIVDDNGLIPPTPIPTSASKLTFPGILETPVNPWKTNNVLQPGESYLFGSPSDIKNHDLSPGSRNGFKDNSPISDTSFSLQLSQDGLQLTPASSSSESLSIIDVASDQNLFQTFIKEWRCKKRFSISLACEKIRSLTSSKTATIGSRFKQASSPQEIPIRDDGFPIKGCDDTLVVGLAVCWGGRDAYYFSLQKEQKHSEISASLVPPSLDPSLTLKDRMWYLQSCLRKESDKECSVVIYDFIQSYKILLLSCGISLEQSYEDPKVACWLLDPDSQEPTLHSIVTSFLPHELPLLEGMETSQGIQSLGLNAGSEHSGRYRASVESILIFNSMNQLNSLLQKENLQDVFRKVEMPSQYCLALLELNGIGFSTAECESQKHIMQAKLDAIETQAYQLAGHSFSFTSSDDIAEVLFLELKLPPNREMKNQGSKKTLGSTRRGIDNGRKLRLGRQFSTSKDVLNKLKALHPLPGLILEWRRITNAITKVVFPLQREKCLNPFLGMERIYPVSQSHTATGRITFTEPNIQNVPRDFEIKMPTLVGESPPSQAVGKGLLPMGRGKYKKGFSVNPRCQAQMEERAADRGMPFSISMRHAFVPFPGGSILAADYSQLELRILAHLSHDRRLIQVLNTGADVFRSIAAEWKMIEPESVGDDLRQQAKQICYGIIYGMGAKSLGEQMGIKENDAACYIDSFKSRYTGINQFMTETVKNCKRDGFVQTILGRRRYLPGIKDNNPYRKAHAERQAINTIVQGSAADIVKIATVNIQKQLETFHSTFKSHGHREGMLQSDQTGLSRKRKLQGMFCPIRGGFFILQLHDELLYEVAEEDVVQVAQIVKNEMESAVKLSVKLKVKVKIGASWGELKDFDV
CC(C)(C)c1nc2c3cc[nH]c(=O)c3c3cc(F)ccc3c2[nH]1 has a remaining activity of 103%.
The remaining activity of CCOCC(O)COc1ccc(NC(=O)CC[S+](C)C)cc1 (stereo not drawn) is reported as 97.1%.
c1ccc2[nH]c(-c3cscn3)nc2c1 has a remaining activity of 99.4% and 101%.
The remaining activity of C=CC(=O)Nc1cc2c(Nc3ccc(F)c(Cl)c3)ncnc2cc1OCCCN1CCOCC1 is reported as 106% and 110% and 111%.
O=C1C[C@@H](c2ccc(O)cc2)Oc2cc(O)cc(O)c21 has a remaining activity of 101% and 102%.
The remaining activity of COC(c1ccccc1)(c1ccccc1)[C@H](Oc1nc(C)cc(C)n1)C(=O)O is reported as 94.5%.
Cc1nc2c(OCc3ccccc3)cccn2c1CC#N has a remaining activity of 106%.
For Cc1cc(C(=O)NNCc2ccccc2)no1, the remaining activity was 96.2%.
COc1cccc2c1[C@@H]1CN(CCCCn3c(=O)[nH]c4c(sc5ncc(-c6ccccc6)nc54)c3=O)C[C@@H]1CO2 gave a remaining activity of 102%.
With CN(C)CC/C=C1\c2ccccc2CSc2ccccc21 the remaining activity was 143%.
COc1cc(C(=O)OCCCN2CCCN(CCCOC(=O)c3cc(OC)c(OC)c(OC)c3)CC2)cc(OC)c1OC has a remaining activity of 94.6% and 103%.

Repeated from above (sample 1):
Mitogen-activated protein kinase 14 (MAPK14, Homo sapiens, UniProt Q16539) — remaining activity: 94.1%.
Dual specificity mitogen-activated protein kinase kinase 1 (MAP2K1, Homo sapiens, UniProt Q02750) — remaining activity: 113%.
RAC-beta serine/threonine-protein kinase (AKT2, Homo sapiens, UniProt P31751) — remaining activity: 97.9%.
The remaining activity was 98.7% (MAP/microtubule affinity-regulating kinase 4 (MARK4, Homo sapiens, UniProt Q96L34)).
For Cyclin-dependent kinase 9, with cyclin K (CDK9, Homo sapiens, UniProt P50750): remaining activity read 107%.
The remaining activity was 109% (Serine/threonine-protein kinase MARK2 (MARK2, Homo sapiens, UniProt Q7KZI7)).
The remaining activity was 88.5% (Myosin-IIIb (MYO3B, Homo sapiens, UniProt Q8WXR4)).
For Tyrosine-protein kinase TXK (TXK, Homo sapiens, UniProt P42681): remaining activity read 105%.
It gave 102% for remaining activity (Rho-associated protein kinase 1 (ROCK1, Homo sapiens, UniProt Q13464)).
For Dual specificity protein kinase CLK4 (CLK4, Homo sapiens, UniProt Q9HAZ1): remaining activity read 88.7%.
It gave 99% for remaining activity (Misshapen-like kinase 1 (MINK1, Homo sapiens, UniProt Q8N4C8)).
The remaining activity was 103% (Serine/threonine-protein kinase Nek3 (NEK3, Homo sapiens, UniProt P51956)).
